Experimental data gathered from unrelated publications.
Compare with care: the assays were run in different laboratories. “And” joins repeats or separate records; there may be more than shown. ± gives the spread as reported. Values after ≈ are worked out from the molar mass of the structure shown.

C[C@]12N[C@H](Cc3ccccc31)c1ccccc12  IC50 (Plasmodium falciparum; W2): 3980 nM
Cc1cc(C)nc(Nc2ccccc2)n1  EC50 (Botrytis cinerea; fungal growth, inhibitor; B05.10 wild type; 168 h): 250 ± 4.4 nM
NC[C@H]1O[C@H](O[C@H]2[C@H](O)[C@@H](O[C@H]3O[C@H](CO)[C@@H](O)[C@H](N)[C@H]3O)[C@H](N)C[C@@H]2N)[C@H](O)[C@@H](O)[C@@H]1O  MIC (Mycobacterium bovis; BCG): 0.625 µg/mL
NC(=O)c1ncn([C@@H]2O[C@H](CO)[C@@H](O)[C@H]2O)n1  EC50 (influenza A virus H3N2; viral cytopathic effect, MTS; MDCK): 4800 nM
O=C(OCCCc1ccccc1)c1ccc(Oc2ccc(O)cc2)cc1  lesion area (Magnaporthe oryzae; Guy11, rice leaves; concentration not given): decreased
NC12CC3CC(CC(C3)C1)C2  EC50 (influenza A virus H3N2; viral cytopathic effect, MTS; MDCK): 400 nM
O=C(Nc1ccccc1-c1ccc(Cl)cc1)c1cccnc1Cl  EC50 (Botrytis cinerea; fungal growth, inhibitor; B05.10 wild type; 168 h): 327 ± 173 nM
CC[C@H](C)[C@H](NC(=O)[C@H](CCCCN)NC(=O)[C@@H](NC(=O)[C@@H](NC(=O)[C@H](CC(C)C)NC(=O)[C@H](CCCNC(=N)N)NC(=O)[C@@H](NC(=O)[C@H](CC(C)C)NC(=O)[C@H](CCCNC(=N)N)NC(=O)CNC(=O)[C@H](Cc1ccccc1)NC(=O)[C@@H](N)CCCNC(=N)N)[C@@H](C)CC)[C@@H](C)CC)C(C)C)C(=O)N[C@@H](C)C(=O)N[C@@H](CCCNC(=N)N)C(=O)N[C@@H](CCCNC(=N)N)C(=O)N[C@@H](C)C(=O)N[C@@H](Cc1c[nH]cn1)C(=O)N[C@@H](CCCNC(=N)N)C(=O)N[C@@H](C)C(=O)N[C@@H](CCCNC(=N)N)C(=O)N[C@@H](CO)C(=O)N[C@@H](C)C(=O)N[C@H](C(=O)N[C@@H](CCCCN)C(=O)N[C@@H](C)C(=O)N[C@@H](C)C(=O)N[C@@H](CO)C(=O)N[C@@H](CC(N)=O)C(=O)N[C@H](C(=O)N[C@@H](C)C(=O)N[C@@H](CCC(=O)O)C(=O)N[C@@H](CC(C)C)C(=O)N[C@@H](C)C(=O)N[C@@H](Cc1c[nH]cn1)C(=O)NCC(=O)N[C@@H](CCC(=O)O)C(=O)O)C(C)C)C(C)C  MIC (Cryptococcus neoformans; resazurin broth microdilution; 36 h, 35 °C): ≤ 0.062 µM
Nc1ccn(C[C@@H](CO)OCP(=O)(O)O)c(=O)n1  infection (Fowlpox virus; viral infection; CEF; 12.5 µM; reference: untreated): 92.5% and 100% and 105%
Cn1cc(-c2ccc3ccn(CC(=O)Nc4ccccc4Cl)c3c2)cn1  EC50 shift (Plasmodium falciparum; parasite growth; Dd2 PfATP4 F156L; reference: parental Dd2): ~2 fold
CS(=O)(=O)Nc1ncn(-c2cc(F)c(COc3ccc(OS(=O)(=O)F)cc3)c(F)c2)n1  MIC (Mycobacterium tuberculosis; MABA; H37Rv): 0.031 µM
CC[C@@H](C)[C@@H]1NC(=O)[C@@H]2CCCN2C(=O)[C@H](Cc2ccccc2)N(C)C(=O)[C@H](Cc2ccccc2)NC(=O)[C@H](C(C)C)N(C)C(=O)[C@@H]([C@H](C)CC)OC(=O)[C@H](C(C)(C)O)N(C)C(=O)[C@H](CC(C)C)NC(=O)[C@H](C(C)C)N(C)C1=O  EC50 (Botrytis cinerea; fungal growth, inhibitor; B05.10 wild type; 168 h): 40.8 ± 22.1 nM
O=C(O)c1nccnc1NC(=O)c1cccc2ccccc12  MIC50 (Mycobacterium bovis; BCG ATCC 35734; 120 h): 200 µM (≈ 58.7 µg/mL)
O[C@@H]1[C@H](O)[C@@H]2C[C@@H]2[C@H]1n1cnc2c(NC(C3CC3)C3CC3)nc(Cl)nc21  EC50 (respiratory syncytial virus; viral replication; MA104, A2): 32000 nM
OC(Cn1cncn1)(Cn1cncn1)c1ccc(F)cc1F  OD600 (Saccharomyces cerevisiae; cell growth; Pdr5 deleted, Cdr1 overexpressed; 2^6.129 µg/mL): 0.192 and 0.232 and 0.126
COc1cc(C[C@@H](C)N)c(OC)cc1I  IC50 (Plasmodium falciparum; W2): 3160 nM
CO/N=C(/C(=O)OC)c1ccccc1CO/N=C(\C)c1cccc(C(F)(F)F)c1  EC50 (Botrytis cinerea; fungal growth, inhibitor; B05.10 wild type; 168 h): 6.9 ± 2.1 nM

A few entries again:
CC[C@@H](C)[C@@H]1NC(=O)[C@@H]2CCCN2C(=O)[C@H](Cc2ccccc2)N(C)C(=O)[C@H](Cc2ccccc2)NC(=O)[C@H](C(C)C)N(C)C(=O)[C@@H]([C@H](C)CC)OC(=O)[C@H](C(C)(C)O)N(C)C(=O)[C@H](CC(C)C)NC(=O)[C@H](C(C)C)N(C)C1=O  EC50 (Botrytis cinerea; fungal growth, inhibitor; B05.10 wild type; 168 h): 40.8 ± 22.1 nM
O=C(O)c1nccnc1NC(=O)c1cccc2ccccc12  MIC50 (Mycobacterium bovis; BCG ATCC 35734; 120 h): 200 µM (≈ 58.7 µg/mL)
O[C@@H]1[C@H](O)[C@@H]2C[C@@H]2[C@H]1n1cnc2c(NC(C3CC3)C3CC3)nc(Cl)nc21  EC50 (respiratory syncytial virus; viral replication; MA104, A2): 32000 nM
